Measurements collected from several papers.
Every numbered part comes from another study and shows a few of its results, in no order. Substitutions count along the parent as printed.

Study 1
Target: Ras GTPase-activating protein-binding protein 1, C-terminal RGG region (G3BP1, Homo sapiens, UniProt Q13283)
Sequence of UniProt Q13283 (whole entry, looked up): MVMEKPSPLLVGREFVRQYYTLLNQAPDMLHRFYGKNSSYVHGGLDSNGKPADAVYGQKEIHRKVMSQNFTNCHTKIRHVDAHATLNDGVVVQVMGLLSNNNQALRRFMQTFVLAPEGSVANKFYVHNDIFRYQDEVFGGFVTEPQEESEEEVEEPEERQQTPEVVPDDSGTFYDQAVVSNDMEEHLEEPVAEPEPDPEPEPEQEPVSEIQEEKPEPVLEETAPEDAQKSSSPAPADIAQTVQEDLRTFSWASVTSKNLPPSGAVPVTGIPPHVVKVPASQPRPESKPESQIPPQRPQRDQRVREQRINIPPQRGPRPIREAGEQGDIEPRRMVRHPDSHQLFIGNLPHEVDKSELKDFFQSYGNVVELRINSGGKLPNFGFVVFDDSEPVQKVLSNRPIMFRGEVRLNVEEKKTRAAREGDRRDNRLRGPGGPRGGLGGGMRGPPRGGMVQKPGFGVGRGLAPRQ
Method: RNA Bind-n-Seq
Molecule type: RNA
Matrix: in vitro
Tested at: 1 µM
Setting: whole 134-nt RNA, ends assumed
Together with: 150 mM KCl
Baseline: input library
Reading: higher = stronger binding
`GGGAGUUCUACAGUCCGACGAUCUCCUGUGCUACACAUCGUAUGUACCGAAUCGGGUUUUUUGGUUUUUUGGUUUUUUGGGGAAAGUAUUAUGUUACGCCGUUCGGAUCUGCAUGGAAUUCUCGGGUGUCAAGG` has a log2 enrichment of -1.14.
`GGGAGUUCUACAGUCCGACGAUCUAACUUUAGAGGAGGAUCUGAUGGAUAUGGCAGUGGACGUGGAAUUGGGGAUGGCUAUAAUGGGUAUGGAGGAGGACCUGGAGGUGGCAAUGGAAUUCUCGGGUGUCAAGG` gave a log2 enrichment of -1.24.
`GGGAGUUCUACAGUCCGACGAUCCUGUGCUACACAUCGUAUGUACCGAAUCGGGGAAAAAAAGGGGAAAGGGGUUUUUUUGGGGAAAGUAUUAUGUUACGCCGUUCGGAUCUGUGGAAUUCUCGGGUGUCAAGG` has a log2 enrichment of 0.444.
The log2 enrichment of `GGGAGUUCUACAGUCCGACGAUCGUCCUGUGCUACACAUCGUAUGUACCGAAUCAAAUUUUUAAAUUUUUUUAAACCCAAAAAAGUAUUAUGUUACGCCGUUCGGAUCUGCACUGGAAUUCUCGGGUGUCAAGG` is reported as -1.21.
With `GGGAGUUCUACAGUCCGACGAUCAGUCCUGUGCUACACAUCGUAUGUACCGAAUCGGGUUUUGGGGUUUUGGGGUUUUGGGAAAGUAUUAUGUUACGCCGUUCGGAUCUGCACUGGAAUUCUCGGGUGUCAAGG` the log2 enrichment was 0.702.
The log2 enrichment of `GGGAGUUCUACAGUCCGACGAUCUCCUGUGCUACACAUCGUAUGUACCGAAUCGGGAAAAAAGGAAAAAAGGGAAAAAAGGGAAAGUAUUAUGUUACGCCGUUCGGAUCUGCAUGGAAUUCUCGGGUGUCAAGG` is reported as -1.08.
`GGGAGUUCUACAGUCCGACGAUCAGGAAAAUGUUUAUAGGAGGCCUUAGCUGGGACACUACAAAGAAAGAUCUGAAGGACUACUUUUCCAAAUUUGGUGAAGUUGUAGACUGCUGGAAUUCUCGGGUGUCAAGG` gave a log2 enrichment of -0.851.
For `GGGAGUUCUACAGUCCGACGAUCUCCUGUGCUACACAUCGUAUGUACCGAAUCGGGGUUUGGGGUUUGGGGAAAAAAAGGGGAAAGUAUUAUGUUACGCCGUUCGGAUCUGCAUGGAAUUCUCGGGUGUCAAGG`, the log2 enrichment was 1.78.
With `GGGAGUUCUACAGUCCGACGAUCCUCAAGUCCUGUGCUACACAUCGUAUGUACCGAAUCGGGUUGGGGUUGGUUGGAAAGUAUUAUGUUACGCCGUUCGGAUCUGCACUUCCAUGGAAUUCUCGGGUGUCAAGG` the log2 enrichment was -0.348.
`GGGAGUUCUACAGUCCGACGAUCUUAUAAUUGAUGAUCAUCCUGAAGUAACAGUAAUUGAAGAUCCCCAGUCAAAUUUGAAUGAUGAUGGUUUUACUGAAGUGGUAUCCAAAAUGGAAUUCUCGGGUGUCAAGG` gave a log2 enrichment of -1.78.

Study 2
Target: Sal-like protein 4, full length isoform B (SALL4, Homo sapiens, UniProt Q9UJQ4-2, residues 1-616)
Method: universal PBM
Molecule type: double-stranded DNA, one strand shown
Matrix: in vitro
Tested at: not given
Setting: 8-mer, flanks averaged, mean of replicates
Reading: higher = stronger binding
The E-score of `TGGGACAA` is reported as -0.0053.
`TTAAGAAA` has an E-score of 0.176.
`CTCGAGTC` gave an E-score of -0.143.
For `CTATCCCC`, the E-score was -0.172.
The E-score of `CTAAAAGA` is reported as 0.0949.
`ATGCAGTG` gave an E-score of -0.0653.
For `TACACGCA`, the E-score was -0.0357.
With `ACAACAAT` the E-score was 0.197.
The E-score of `GCGCCAAA` is reported as -0.0418.
For `AGCCAGGC`, the E-score was -0.302.
`AATCCTTA` gave an E-score of 0.246.
The E-score of `CCGGGAAG` is reported as -0.238.
With `AAACTGTC` the E-score was -0.16.
For `CAGTGGGC`, the E-score was -0.201.
With `AGACTGCG` the E-score was -0.209.
The E-score of `CGGGTAAC` is reported as -0.185.
With `AGAATCAT` the E-score was 0.295.
`ACGTCACT` gave an E-score of -0.0178.
`ATATCAAT` has an E-score of 0.372.
`CACGGGAC` has an E-score of -0.15.
The E-score of `ACGGTCCG` is reported as -0.247.
The E-score of `CGCCTCGC` is reported as -0.291.
`CCACTCAG` gave an E-score of -0.0929.
`CGGTAACA` gave an E-score of 0.0748.

Study 3
Target: CEBPB, bZIP domain (human)
Method: DHFR protein complementation
Matrix: yeast
Setting: single substitutions, most at no-binding floor
Baseline: wild-type JUN-FOS pair
Reading: higher = stronger binding
Starting sequence: JUN, bZIP domain (human); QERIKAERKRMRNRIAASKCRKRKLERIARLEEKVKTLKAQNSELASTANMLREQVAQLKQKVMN; partner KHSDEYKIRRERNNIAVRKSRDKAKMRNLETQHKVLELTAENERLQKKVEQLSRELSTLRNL
The binding fitness of `N42Y` is reported as -1.5 natural log.
With `E54C` the binding fitness was -1.37 natural log.
The binding fitness of `L45W` is reported as -1.51 natural log.
For `K36W`, the binding fitness was -1.45 natural log.
With `S47L` the binding fitness was -1.29 natural log.
The binding fitness of `A46E` is reported as -1.08 natural log.
`Q41P` has a binding fitness of -1.48 natural log.
For `K36T`, the binding fitness was -1.44 natural log.
`Q55G` has a binding fitness of -1.46 natural log.
`L52H` has a binding fitness of -1.44 natural log.
The binding fitness of `E44S` is reported as -1.25 natural log.
With `S43A` the binding fitness was -1.11 natural log.
With `S47D` the binding fitness was -1.23 natural log.
`A29R` has a binding fitness of -1.24 natural log.
The binding fitness of `A49W` is reported as -1.53 natural log.
The binding fitness of `T37A` is reported as -1.27 natural log.

Study 4
Organism: Saccharomyces cerevisiae
Read-out: peptide binding
Method: yeast competitive growth sequencing
Molecule type: peptide
Strain: cyclin F-Cln2 fusion
Tested at: concentration not given
Setting: library 1, Cln2-subtracted
Reading: direction not given
With `ASPLKKLFTSTGL` the binding score was 0.528.
With `GSPAKKLFTSTGL` the binding score was -0.0621.
`GSALKKLFTSTGL` has a binding score of 1.21.

Study 5
Target: UBE2N UBC core domain (UniProt P61088)
Sequence of UniProt P61088 (whole entry, looked up): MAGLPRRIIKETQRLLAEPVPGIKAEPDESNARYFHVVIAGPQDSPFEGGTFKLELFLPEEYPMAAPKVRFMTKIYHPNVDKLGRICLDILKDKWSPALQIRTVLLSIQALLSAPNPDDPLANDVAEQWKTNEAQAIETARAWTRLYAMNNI
Method: yeast two-hybrid
Matrix: yeast
Setting: mostly zero background
Baseline: not given
Reading: higher = stronger interaction
B1: RNF10 RING domain (UniProt Q8N5U6); chain VRICSHEVPSCPICLYPPTAAKITRCGHIFCWACILHYLSLSEKTWSKCPICYSSVHKKDLKS
B2: TRIM28 RING domain (UniProt Q13263); chain GAEALELLEHCGVCRERLRPEREPRLLPCLHSACSACLGPAAPAAANSSGDGGAAGDGTVVDCPVCKQQCFSKDIVE
B3: RNF115 RING domain (UniProt Q9Y4L5); chain TQEQVDMGLECPVCKEDYTVEEEVRQLPCNHFFHSSCIVPWLELHDTCPVCRKSLNGEDSTR
B4: RMND5B RING domain (UniProt Q96G75); chain MKCWYHSVFACPILRQQTSDSNPPIKLICGHVISRDALNKLINGGKLKCPYCPMEQNPADGK
B5: UBE4B RING domain (UniProt O95155); chain KNARAEIDYSDAPDEFRDPLMDTLMTDPVRLPSGTIMDRSIILRHLLNSPTDPFNRQTLTESMLEPVPELKEQIQAWMREKQNSDH
B6: TRIM2 RING domain (UniProt Q9C040); chain VRQIDKQFLICSICLERYKNPKVLPCLHTFCERCLQNYIPAHSLTLSCPVCRQTSILPEKGV
B7: ARIH1 RING domain (UniProt Q9Y4X5); chain NTRSSAQDMPCQICYLNYPNSYFTGLECGHKFCMQCWSEYLTTKIMEEGMGQTISCPAHGCDILVDDNTVM
B8: NHLRC1 RING domain (UniProt Q6VVB1); chain MREAEISLLECKVCFEKFGHRQQRRPRNLSCGHVVCLACVAALAHPRTLALECPFCRRACRGCDTSD
B9: RNF130 RING domain (UniProt Q86XS8); chain DKETDPDFDHCAVCIESYKQNDVVRILPCKHVFHKSCVDPWLSEHCTCPMCKLNILKALGIV
B10: RNF11 RING domain (UniProt Q9Y3C5); chain RDGSEKKIRECVICMMDFVYGDPIRFLPCMHIYHLDCIDDWLMRSFTCPSCMEPVDAALLSS
B11: SHPRH RING domain (UniProt Q149N8); chain KTSGGVNPEPCPICARQLGKQWAVLTCGHCFCNECISIIIEQYSVGSHRSSIKCAICRQTTSHKEISY
`KITELNPHLMCALCGGYFIDATTIVECLHSFCKTCIVRYLETNKYCPMCDVQVHKTRPLL (PCGF2 RING domain (UniProt P35227))`: “lacZ reporter activity” 0.
`B1 (RNF10 RING domain)`: “lacZ reporter activity” 0.
`B2 (TRIM28 RING domain)`: “lacZ reporter activity” 0.
For `B3 (RNF115 RING domain)`, “lacZ reporter activity” read 0.
Under “lacZ reporter activity”, `B4 (RMND5B RING domain)` is recorded as 0.
`FLSKVEETFQCICCQELVFRPITTVCQHNVCKDCLDRSFRAQVFSCPACRYDLGRSYAMQ (UHRF1 RING domain (UniProt Q96T88))`: “lacZ reporter activity” 0.
For `AAQLLEEKLTCAICLGLYQDPVTLPCGHNFCGACIRDWWDRCGKACPECREPFPDGAELR (TRIM65 RING domain (UniProt Q6PJ69))`, “lacZ reporter activity” read 0.
For `B5 (UBE4B RING domain)`, “lacZ reporter activity” read 0.
`B6 (TRIM2 RING domain)`: “lacZ reporter activity” 0.
Under “lacZ reporter activity”, `B7 (ARIH1 RING domain)` is recorded as 0.
For `B8 (NHLRC1 RING domain)`, “lacZ reporter activity” read 0.
For `GSEEEEIPFRCFICRQAFQNPVVTKCRHYFCESCALEHFRATPRCYICDQPTGGIFNPA (RNF113B RING domain (UniProt Q8IZP6))`, “lacZ reporter activity” read 0.
`B9 (RNF130 RING domain)` — result for “lacZ reporter activity”: 13400.
`PLRRLQEEKLCKICMDRHIAVVFIPCGHLVTCKQCAEAVDRCPMCSAVIDFKQRVF (BIRC8 RING domain (UniProt Q96P09))`: “lacZ reporter activity” 0.
`B10 (RNF11 RING domain)` — result for “lacZ reporter activity”: 15600.
Under “lacZ reporter activity”, `B11 (SHPRH RING domain)` is recorded as 0.

Repeated from above (study 3):
The binding fitness of `L45W` is reported as -1.51 natural log.
For `K36W`, the binding fitness was -1.45 natural log.
With `S47L` the binding fitness was -1.29 natural log.
The binding fitness of `A46E` is reported as -1.08 natural log.
`Q41P` has a binding fitness of -1.48 natural log.
For `K36T`, the binding fitness was -1.44 natural log.
`Q55G` has a binding fitness of -1.46 natural log.
